Earlier results, collected from citations in different studies.
Protocols differ between the studies behind these lines. Numbers after ± are the reported error. Ends that are not written are not given here.
DRD5: D(1B) dopamine receptor (DRD5, Homo sapiens, UniProt P21918)
UniProt P21918, sequence (whole entry, looked up): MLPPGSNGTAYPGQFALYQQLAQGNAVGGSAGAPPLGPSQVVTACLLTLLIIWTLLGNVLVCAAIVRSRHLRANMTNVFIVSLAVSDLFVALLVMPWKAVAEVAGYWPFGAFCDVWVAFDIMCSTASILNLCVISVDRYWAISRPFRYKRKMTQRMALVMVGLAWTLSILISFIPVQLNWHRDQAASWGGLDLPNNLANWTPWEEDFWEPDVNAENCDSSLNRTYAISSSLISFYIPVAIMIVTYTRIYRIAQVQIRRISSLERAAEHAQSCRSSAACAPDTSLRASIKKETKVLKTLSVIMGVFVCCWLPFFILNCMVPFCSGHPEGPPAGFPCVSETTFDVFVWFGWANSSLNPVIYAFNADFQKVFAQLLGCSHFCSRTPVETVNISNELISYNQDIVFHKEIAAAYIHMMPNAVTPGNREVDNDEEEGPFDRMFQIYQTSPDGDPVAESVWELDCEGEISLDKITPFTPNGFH

C/C1=C\CC[C@@]2(C)O[C@@H]2[C@H]2OC(=O)[C@@H](CN(C)C)[C@@H]2CC1
IC50 (U-87 MG; cell growth, inhibitor): 8.8 ± 1.9 µM

Aristolactam IIIa
IC50 (human neutrophils; superoxide production; with: fMLF): 0.43 µM

N.N.[Cl][Pt][Cl]
IC50 (colorectal cancer cell lines; cell growth; mean of 27 lines): 13.2 µM

COCCC/C=C/C(C)=C/[C@@H]1Cc2nc(cs2)[C@@H](C)C[C@@H](NC(=O)OC(C)(C)C)CC(=O)O[C@@H](C)C/C(C)=C/C=C\C(=O)O1
IC50 (Jurkat T cells; IL-2 reporter gene): > 1 µM

CN(Cc1cnc2nc(N)nc(N)c2n1)c1ccc(C(=O)N[C@@H](CCC(=O)O)C(=O)O)cc1
IC50 (KB; cell growth; 96 h, with: folic acid 200 nM): 0.02 µM

C=CCc1ccc(O)c(-c2cc(O)ccc2O)c1
IC50 (neutrophils; superoxide production; with: fMLF): 1.6 µM

INLKALAALAKKIL-OH (mastoparan free acid)
IC50 (MDA-MB-231; cell growth; peptide): 251 µM

C=CCN(CC=C)CCc1c[nH]c2ccc(OC)cc12
Ki (DRD5): > 10 µM

C=C1[C@H]2[C@@H]([C@@H](C(C)C)C[C@@H]1O)[C@H]1O[C@@H]2C[C@](C)(O)[C@@H](OC(=O)Cc2ccccc2)CC[C@@]1(C)OC(=O)CCC
IC50 (neutrophils; superoxide production; with: fMLF): 3.1 µM

C[C@H]1O[C@@H](O[C@H]2[C@@H](O)C[C@H](O[C@H]3[C@@H](O)C[C@H](O[C@H]4CC[C@@]5(C)[C@H](CC[C@@H]6[C@@H]5C[C@@H](O)[C@]5(C)[C@@H](C7=CC(=O)OC7)CC[C@]65O)C4)O[C@@H]3C)O[C@@H]2C)C[C@H](O)[C@@H]1O
IC50 (OVCAR-3; cell viability; 72 h): 0.1 ± 0.01 µM

C=CCN(CC=C)CCc1c[nH]c2ccccc12
Ki (DRD5; binding; cloned human receptor; with: [3H]SCH23390): > 10 µM

CO[C@H]1C[C@H](O[C@H]2CC[C@@]3(C)[C@@H](C2)C[C@@H]2O[C@]24[C@@H]3[C@H](O)C(=O)[C@]2(C)[C@@H](C3=CC(=O)OC3)CC[C@]42O)O[C@@H](C)[C@@H]1O
IC50 (HT-29; cell viability; 72 h): 0.22 ± 0.23 µM

COc1ccc(C[C@H]2COC(=O)[C@@H]2Cc2ccc(O)c(O)c2)cc1OC
IC50 (human neutrophils; calcium flux, inhibitor; with: fMLF): < 10 µM

N.N.[Cl][Pt][Cl]
IC50 (HeLa): 27.2 ± 1.71 µM

CC[C@H](C)[C@@H]1NC(=O)[C@H](Cc2c[nH]c3ccccc23)NC(=O)CNC(=O)[C@H](CO)NC(=O)[C@H](C(C)C)NC(=O)[C@H](CC(N)=O)NC(=O)[C@H](Cc2c[nH]c3ccccc23)NC(=O)[C@H](Cc2ccc(O)cc2)NC1=O
IC50 (HEK-293T; virus-like particle budding, inhibitor, GAG-mediated VLP budding): 7 µM

Nc1nc2c(c(=O)[nH]1)C[C@@H](CCc1ccc(C(=O)N[C@@H](CCC(=O)O)C(=O)O)cc1)CN2
IC50 (CCRF-CEM/MTX RFC-deficient; cell growth): > 100 µM

N.N.[Cl][Pt][Cl]
IC50 (esophageal cancer cell lines, low GLUT1 expression; 17 cell lines, mean value): 18.3 ± 11.6 µM

C/C1=C\[C@H](C)C[C@H](C)OC(=O)C[C@H](c2ccc(O)cc2)NC(=O)[C@@H](Cc2c(Br)[nH]c3ccccc23)N(C)C(=O)[C@H](CO)NC(=O)[C@@H](C)C1
IC50 (MCF7; cytotoxicity): 0.02 µM

COC(=O)C(C)CCC[C@]1(C)CC[C@]2(O1)C(=O)C(C)=C(C)[C@@]2(O)C(C)=O (stereo partly drawn)
IC50 (neutrophils; superoxide production; with: fMLF): 4.1 µM

C/C1=C\[C@H](C)C[C@H](C)OC(=O)C[C@H](c2ccc(O)cc2)NC(=O)[C@@H](Cc2c(Br)[nH]c3ccccc23)N(C)C(=O)[C@H](C)NC(=O)[C@@H](C)C1
IC50 (MCF7; cytotoxicity): 0.019 µM

N.N.[Cl][Pt][Cl]
IC50 (human PBMC; MTT; 24 h, dissolved in water): 500 ± 18 µM

For quick reference, copied from above:
C=C1[C@H]2[C@@H]([C@@H](C(C)C)C[C@@H]1O)[C@H]1O[C@@H]2C[C@](C)(O)[C@@H](OC(=O)Cc2ccccc2)CC[C@@]1(C)OC(=O)CCC
IC50 (neutrophils; superoxide production; with: fMLF): 3.1 µM
